Experimental data gathered from unrelated publications.
Parts stem from different laboratories: compare values within a part only. Several values in a cell are separate wells, animals, samples, runs or records.
Sequence of UniProt P42336 (whole entry, unmodified, looked up): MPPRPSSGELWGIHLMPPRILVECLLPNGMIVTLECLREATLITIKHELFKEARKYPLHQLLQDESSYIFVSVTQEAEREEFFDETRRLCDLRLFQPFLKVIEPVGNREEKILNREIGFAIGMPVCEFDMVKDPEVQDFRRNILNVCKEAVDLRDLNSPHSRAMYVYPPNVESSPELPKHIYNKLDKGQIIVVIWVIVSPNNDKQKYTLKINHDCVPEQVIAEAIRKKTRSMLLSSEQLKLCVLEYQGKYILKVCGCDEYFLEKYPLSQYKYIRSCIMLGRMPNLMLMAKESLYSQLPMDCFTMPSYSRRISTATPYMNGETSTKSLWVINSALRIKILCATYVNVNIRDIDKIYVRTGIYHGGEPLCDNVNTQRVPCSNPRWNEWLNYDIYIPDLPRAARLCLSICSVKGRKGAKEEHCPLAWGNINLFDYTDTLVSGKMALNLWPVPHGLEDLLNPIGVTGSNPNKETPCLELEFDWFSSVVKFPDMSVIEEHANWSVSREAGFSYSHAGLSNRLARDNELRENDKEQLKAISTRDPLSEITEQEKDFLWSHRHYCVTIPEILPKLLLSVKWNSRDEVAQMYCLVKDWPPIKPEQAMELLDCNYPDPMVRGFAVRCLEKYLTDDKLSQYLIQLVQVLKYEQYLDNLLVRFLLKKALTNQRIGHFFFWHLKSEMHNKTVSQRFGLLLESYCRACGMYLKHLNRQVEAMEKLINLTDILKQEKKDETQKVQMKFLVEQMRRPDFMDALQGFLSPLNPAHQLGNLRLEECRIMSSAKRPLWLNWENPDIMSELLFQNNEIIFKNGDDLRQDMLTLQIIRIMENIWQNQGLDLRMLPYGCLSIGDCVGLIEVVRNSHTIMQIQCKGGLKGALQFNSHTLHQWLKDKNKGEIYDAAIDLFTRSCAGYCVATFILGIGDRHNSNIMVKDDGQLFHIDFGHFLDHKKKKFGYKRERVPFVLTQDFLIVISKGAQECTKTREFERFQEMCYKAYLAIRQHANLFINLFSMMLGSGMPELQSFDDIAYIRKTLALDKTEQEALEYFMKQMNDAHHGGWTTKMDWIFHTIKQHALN
Sequence of UniProt O43293 (whole entry, looked up): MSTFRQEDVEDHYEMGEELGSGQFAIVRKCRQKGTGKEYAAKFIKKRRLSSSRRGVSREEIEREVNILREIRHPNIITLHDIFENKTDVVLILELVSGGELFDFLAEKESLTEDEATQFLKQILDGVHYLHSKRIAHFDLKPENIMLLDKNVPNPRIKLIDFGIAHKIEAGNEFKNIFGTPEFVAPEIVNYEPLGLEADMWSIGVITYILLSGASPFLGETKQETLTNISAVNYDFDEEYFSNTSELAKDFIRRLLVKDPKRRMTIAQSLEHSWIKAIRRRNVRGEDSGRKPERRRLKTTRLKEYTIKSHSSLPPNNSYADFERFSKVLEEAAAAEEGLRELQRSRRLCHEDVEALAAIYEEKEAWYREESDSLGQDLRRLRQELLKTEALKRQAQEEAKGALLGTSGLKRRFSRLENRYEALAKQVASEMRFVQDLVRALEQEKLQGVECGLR
Sequence of UniProt Q09013 (whole entry, looked up): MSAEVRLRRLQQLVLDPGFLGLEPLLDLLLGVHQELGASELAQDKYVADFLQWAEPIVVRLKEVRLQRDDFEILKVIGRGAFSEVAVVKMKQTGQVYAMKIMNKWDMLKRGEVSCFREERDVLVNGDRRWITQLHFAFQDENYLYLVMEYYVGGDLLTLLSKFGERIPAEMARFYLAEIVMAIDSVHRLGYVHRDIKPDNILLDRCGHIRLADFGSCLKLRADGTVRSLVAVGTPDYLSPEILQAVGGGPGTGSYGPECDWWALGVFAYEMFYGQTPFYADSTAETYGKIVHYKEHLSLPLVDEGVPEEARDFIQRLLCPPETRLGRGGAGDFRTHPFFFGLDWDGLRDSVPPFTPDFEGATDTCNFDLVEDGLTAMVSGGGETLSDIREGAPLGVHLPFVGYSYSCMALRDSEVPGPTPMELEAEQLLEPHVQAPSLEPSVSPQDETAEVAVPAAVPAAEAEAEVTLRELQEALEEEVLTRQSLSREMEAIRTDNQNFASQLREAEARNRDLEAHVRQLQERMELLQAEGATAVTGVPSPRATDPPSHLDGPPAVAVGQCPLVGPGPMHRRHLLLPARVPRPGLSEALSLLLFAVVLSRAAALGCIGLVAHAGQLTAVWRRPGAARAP
Sequence of UniProt Q9P1W9 (whole entry, looked up): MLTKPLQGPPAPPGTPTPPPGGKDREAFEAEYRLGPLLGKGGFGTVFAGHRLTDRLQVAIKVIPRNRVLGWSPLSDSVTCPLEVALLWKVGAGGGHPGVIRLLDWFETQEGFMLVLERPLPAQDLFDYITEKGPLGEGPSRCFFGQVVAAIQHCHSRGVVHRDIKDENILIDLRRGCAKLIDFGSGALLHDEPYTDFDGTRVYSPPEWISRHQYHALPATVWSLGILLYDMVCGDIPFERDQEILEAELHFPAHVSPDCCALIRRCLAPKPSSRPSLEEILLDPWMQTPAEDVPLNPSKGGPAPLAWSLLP
Sequence of UniProt Q86Z02 (whole entry, looked up): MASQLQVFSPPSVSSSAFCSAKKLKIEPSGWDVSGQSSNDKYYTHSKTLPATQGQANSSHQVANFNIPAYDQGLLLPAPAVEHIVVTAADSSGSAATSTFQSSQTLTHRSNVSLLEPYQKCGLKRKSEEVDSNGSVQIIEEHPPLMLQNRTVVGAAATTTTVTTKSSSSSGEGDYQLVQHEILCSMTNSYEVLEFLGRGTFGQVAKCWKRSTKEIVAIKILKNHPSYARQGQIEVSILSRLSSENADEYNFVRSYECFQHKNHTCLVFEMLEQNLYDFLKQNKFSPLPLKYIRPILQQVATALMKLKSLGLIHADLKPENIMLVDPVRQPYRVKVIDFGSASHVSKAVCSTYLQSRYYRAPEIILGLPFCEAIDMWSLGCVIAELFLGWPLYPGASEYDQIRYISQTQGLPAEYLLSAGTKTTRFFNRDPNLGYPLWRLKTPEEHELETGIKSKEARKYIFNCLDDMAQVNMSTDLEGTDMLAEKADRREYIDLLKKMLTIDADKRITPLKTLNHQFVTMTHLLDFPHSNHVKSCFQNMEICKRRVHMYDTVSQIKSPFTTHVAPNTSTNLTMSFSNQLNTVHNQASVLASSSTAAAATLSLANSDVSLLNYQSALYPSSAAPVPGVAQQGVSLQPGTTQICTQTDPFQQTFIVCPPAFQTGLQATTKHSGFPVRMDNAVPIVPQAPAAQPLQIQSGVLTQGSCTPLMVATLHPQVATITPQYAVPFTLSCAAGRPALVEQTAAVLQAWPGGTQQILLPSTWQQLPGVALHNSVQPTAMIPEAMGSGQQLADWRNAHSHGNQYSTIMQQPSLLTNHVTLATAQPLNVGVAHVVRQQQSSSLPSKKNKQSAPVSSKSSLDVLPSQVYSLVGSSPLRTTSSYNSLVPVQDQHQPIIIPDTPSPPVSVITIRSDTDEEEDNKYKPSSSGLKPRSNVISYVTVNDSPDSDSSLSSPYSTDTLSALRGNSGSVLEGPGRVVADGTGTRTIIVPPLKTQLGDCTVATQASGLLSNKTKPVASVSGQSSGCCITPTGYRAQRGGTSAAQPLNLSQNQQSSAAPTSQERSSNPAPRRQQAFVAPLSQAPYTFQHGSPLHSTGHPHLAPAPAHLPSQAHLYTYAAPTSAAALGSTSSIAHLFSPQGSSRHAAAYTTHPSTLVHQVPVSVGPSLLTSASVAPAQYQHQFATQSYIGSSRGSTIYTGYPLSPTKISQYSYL
Sequence of UniProt P20794 (whole entry, looked up): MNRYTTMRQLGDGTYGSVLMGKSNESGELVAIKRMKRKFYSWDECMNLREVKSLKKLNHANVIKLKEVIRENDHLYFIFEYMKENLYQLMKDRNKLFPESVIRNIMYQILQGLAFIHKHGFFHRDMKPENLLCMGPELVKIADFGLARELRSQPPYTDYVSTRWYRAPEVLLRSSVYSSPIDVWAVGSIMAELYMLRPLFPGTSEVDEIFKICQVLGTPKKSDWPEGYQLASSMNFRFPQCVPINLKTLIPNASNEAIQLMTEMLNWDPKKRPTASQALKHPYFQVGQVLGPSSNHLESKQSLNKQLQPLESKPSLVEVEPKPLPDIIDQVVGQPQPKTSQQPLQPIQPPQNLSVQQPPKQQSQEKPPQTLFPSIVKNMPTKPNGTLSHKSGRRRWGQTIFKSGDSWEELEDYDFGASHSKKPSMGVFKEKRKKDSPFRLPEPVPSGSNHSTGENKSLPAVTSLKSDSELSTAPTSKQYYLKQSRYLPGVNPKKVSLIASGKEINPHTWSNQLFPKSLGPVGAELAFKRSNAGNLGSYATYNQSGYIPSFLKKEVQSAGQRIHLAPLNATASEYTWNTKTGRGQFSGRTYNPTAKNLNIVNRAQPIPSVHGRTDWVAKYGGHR

Series 1 — read-out: enzyme activity; mode: inhibitor; concentration: 10 µM
Target: Calcium/calmodulin-dependent protein kinase type II subunit alpha (CAMK2A, Homo sapiens, UniProt Q9UQM7)
Sequence of UniProt Q9UQM7 (whole entry, looked up): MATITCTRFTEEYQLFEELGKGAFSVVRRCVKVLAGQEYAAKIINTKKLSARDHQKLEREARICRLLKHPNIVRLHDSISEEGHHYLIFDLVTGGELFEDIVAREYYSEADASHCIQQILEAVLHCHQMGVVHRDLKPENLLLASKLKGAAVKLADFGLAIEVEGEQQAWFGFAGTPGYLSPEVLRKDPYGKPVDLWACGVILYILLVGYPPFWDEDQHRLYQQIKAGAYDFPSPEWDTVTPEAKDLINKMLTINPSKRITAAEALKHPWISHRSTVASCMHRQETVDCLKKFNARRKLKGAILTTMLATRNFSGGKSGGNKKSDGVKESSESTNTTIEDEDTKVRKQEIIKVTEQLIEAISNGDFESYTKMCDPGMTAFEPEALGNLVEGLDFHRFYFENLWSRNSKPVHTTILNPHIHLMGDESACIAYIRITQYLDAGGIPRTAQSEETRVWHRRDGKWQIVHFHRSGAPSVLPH
| Structure (SMILES) | inhibition [%] |
| --- | --- |
| C[C@@]12CCc3occc3[C@H]1CC[C@@]13C[C@@H](CC[C@H]12)[C@@](O)(CO)C3 | 35 |
| CCOc1cc2ncc(C#N)c(Nc3ccc(OCc4ccccn4)c(Cl)c3)c2cc1NC(=O)/C=C/CN(C)C | -4 |
| CC1=C(/C=C/C(C)=C/C=C/C(C)=C/C(=O)O)C(C)(C)CCC1=O | 1 |
| CCCCCCCCCCCC[N+](C)(C)CCOc1ccccc1 | -1 |
| COc1cc(N)c(Cl)cc1C(=O)NC1CCN(Cc2ccccc2)CC1 | -16 |
| CCC(C)(O)C(=O)O (centres unmarked) | 6 |
| Cc1nc2ccccc2c(=O)[nH]1 | -2 |
| N[C@@H](Cc1c[nH]c2ccccc12)C(=O)O | -3 |

Series 2 — species: human; medium: microsomes or S9; concentration: 2 µM; time: 0.5 h
| SMILES | remaining compound [%] |
| --- | --- |
| CCN1C=CC(=C(C=C2C=CC(=O)C=C2)CS(=O)(=O)O)C=C1 | 66.3 |
| O=C(Nc1cccnc1Cl)NC1CCc2[nH]cnc2C1 (centres unmarked) | > 100 |
| COc1cc(CN2CCC(NC(=O)NC3CCCCC3)CC2)cc(OC)c1OC | 92.2 |
| O=C(O)c1ccc(-c2nc3cc(Cl)c(Cl)cc3[nH]2)cc1 | 29.6 |
| O=C(Cn1ncccc1=O)N1Cc2cnc(N3CCOCC3)nc2C1 | > 99 |
| CCC(=O)N(CCO)Cc1cc2cc(C)cc(C)c2[nH]c1=O | > 100 |

Series 3 — technique: competition with immobilised ligand; concentration: 1 µM
SMILES: O=C(O)[C@@H]1[C@@H](Cn2nnc3ccccc3c2=O)CC[C@H]1C(=O)c1ccc(OCCC2CCOCC2)cc1
| target | test | remaining binding [%] |
| --- | --- | --- |
| ULK2 (Homo sapiens, UniProt Q8IYT8) | cell-free assay | 90 |
| FLT3 (Homo sapiens, UniProt P36888) | cell-free assay | 100 |
| PTK2B (Homo sapiens, UniProt Q14289) | cell-free assay | 100 |
| MAP4K2 (Homo sapiens, UniProt Q12851) | cell-free assay | 97 |
| PLK3 (Homo sapiens, UniProt Q9H4B4) | cell-free assay | 87 |
| DYRK2 (Homo sapiens, UniProt Q92630) | cell-free assay | 90 |
| MAK (Homo sapiens, UniProt P20794) | binding | 78 |
| Tyrosine-protein kinase JAK1, JH1 (JAK1, Homo sapiens, UniProt P23458) | cell-free assay | 79 |
| HIPK1 (Homo sapiens, UniProt Q86Z02) | cell-free assay | 91 |
| MYLK2 (Homo sapiens, UniProt Q9H1R3) | cell-free assay | 100 |
| EGFR (Homo sapiens, UniProt P00533, G719C) | cell-free assay | 90 |
| CSNK2A2 (Homo sapiens, UniProt P19784) | cell-free assay | 88 |
| STK39 (Homo sapiens, UniProt Q9UEW8) | cell-free assay | 96 |
| IRAK1 (Homo sapiens, UniProt P51617) | cell-free assay | 82 |
| STK32B (Homo sapiens, UniProt Q9NY57) | cell-free assay | 100 |
| ACVR2B (Homo sapiens, UniProt Q13705) | binding | 100 |
| Ribosomal protein S6 kinase alpha-1, C-terminal kinase domain (RPS6KA1, Homo sapiens, UniProt Q15418) | cell-free assay | 92 |
| PIK3CA (Homo sapiens, UniProt P42336, I800L) | cell-free assay | 34 |
| PIM2 (Homo sapiens, UniProt Q9P1W9) | cell-free assay | 94 |
| PIK3C2G (Homo sapiens, UniProt O75747) | cell-free assay | 95 |
| BMPR2 (Homo sapiens, UniProt Q13873) | cell-free assay | 98 |
| PIK3CA (Homo sapiens, UniProt P42336, H1047L) | cell-free assay | 84 |
| DAPK3 (Homo sapiens, UniProt O43293) | cell-free assay | 100 |
| PRKD1 (Homo sapiens, UniProt Q15139) | cell-free assay | 100 |

Series 4 — read-out: enzyme activity; concentration: 5 µM; reference: untreated control
SMILES: O=C(Nc1cnn(-c2csc(C(=O)NC3COC3)c2)c1)Nc1c(F)cccc1Cl
| target | remaining activity [%] |
| --- | --- |
| MAP3K10 (Homo sapiens, UniProt Q02779) | 92.3 |
| SGK3 (Homo sapiens, UniProt Q96BR1) | 86.3 |
| Cyclin-dependent kinase 4, with cyclin D3 (CDK4, Homo sapiens, UniProt P11802) | 78.3 |
| DMPK (Homo sapiens, UniProt Q09013) | 110 |
| PDPK1 (Homo sapiens, UniProt O15530) | 99.1 |
| MAPK9 (Homo sapiens, UniProt P45984) | 21.8 |
| STK25 (Homo sapiens, UniProt O00506) | 94.2 |

Series 5 — cell line: NCI-H446; time: 5 days; reference: DMSO
SMILES: CC(C)C[C@@H]1NC(=O)[C@@H](N(C)C(=O)[C@H](CC2CCC2)NC(=O)[C@@H]2C[C@@H](F)CN2C(=O)C2(C(F)(F)F)CC(F)(F)C2)CCCCNC(=O)C2(CC2)NC(=O)[C@H](Cc2cc(Cl)ccc2Cl)N(C)C1=O
| test | conditions | cell growth |
| --- | --- | --- |
| cell counting | 511 pM | 99% and 79.9% |
| cell counting | 3.33 µM | 21% and 23% |
| cell counting | 13.7 nM | 54.7% and 47.9% |
| Vi-Cell counting | 10 µM, added: Myt1 inhibitor 1000 nM | 5.46% and 4.74% |
| cell counting | 1.11 µM | 15.7% and 12.7% |
| cell counting | 371 nM | 14.2% and 12.8% |
| Vi-Cell counting | 124 nM, added: Myt1 inhibitor 1000 nM | 18.6% and 12.5% |
| Vi-Cell counting | 4.57 nM, added: Myt1 inhibitor 1000 nM | 61.8% and 42.6% |

Repeated from above (series 4):
| target | remaining activity [%] |
| --- | --- |
| MAPK9 (Homo sapiens, UniProt P45984) | 21.8 |
| Cyclin-dependent kinase 4, with cyclin D3 (CDK4, Homo sapiens, UniProt P11802) | 78.3 |
| STK25 (Homo sapiens, UniProt O00506) | 94.2 |
| MAP3K10 (Homo sapiens, UniProt Q02779) | 92.3 |
